Measurements collected from several papers.
Numbered parts are unrelated; each lists some results of a single study. Several values in a cell are separate wells, animals, samples, runs or records.
Chain of UniProt P08912 (whole entry, looked up): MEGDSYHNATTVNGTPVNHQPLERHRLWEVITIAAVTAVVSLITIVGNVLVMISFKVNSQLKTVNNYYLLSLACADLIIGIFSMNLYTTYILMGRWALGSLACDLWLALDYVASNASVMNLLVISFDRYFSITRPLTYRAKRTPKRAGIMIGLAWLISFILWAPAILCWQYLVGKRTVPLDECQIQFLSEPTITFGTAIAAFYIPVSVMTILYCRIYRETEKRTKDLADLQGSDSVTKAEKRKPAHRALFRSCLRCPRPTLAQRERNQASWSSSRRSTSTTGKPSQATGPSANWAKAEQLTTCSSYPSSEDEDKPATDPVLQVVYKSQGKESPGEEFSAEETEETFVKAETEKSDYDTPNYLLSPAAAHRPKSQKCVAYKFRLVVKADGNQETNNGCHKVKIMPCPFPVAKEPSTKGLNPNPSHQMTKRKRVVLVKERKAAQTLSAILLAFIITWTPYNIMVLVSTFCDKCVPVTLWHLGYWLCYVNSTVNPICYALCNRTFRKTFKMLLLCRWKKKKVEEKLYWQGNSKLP
Chain of UniProt Q9H3N8 (whole entry, looked up): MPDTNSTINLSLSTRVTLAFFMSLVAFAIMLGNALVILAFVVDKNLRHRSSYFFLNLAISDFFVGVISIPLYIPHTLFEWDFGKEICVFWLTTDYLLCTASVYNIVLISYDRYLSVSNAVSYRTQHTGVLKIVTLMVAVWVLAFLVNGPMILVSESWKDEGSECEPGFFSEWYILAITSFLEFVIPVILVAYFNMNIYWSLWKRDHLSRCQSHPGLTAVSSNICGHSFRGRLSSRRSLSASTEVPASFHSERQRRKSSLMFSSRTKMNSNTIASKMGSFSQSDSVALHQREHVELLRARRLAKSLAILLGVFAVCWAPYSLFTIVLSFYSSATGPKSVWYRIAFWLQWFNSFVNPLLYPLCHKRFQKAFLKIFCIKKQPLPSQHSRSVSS
Chain of UniProt P35368 (whole entry, looked up): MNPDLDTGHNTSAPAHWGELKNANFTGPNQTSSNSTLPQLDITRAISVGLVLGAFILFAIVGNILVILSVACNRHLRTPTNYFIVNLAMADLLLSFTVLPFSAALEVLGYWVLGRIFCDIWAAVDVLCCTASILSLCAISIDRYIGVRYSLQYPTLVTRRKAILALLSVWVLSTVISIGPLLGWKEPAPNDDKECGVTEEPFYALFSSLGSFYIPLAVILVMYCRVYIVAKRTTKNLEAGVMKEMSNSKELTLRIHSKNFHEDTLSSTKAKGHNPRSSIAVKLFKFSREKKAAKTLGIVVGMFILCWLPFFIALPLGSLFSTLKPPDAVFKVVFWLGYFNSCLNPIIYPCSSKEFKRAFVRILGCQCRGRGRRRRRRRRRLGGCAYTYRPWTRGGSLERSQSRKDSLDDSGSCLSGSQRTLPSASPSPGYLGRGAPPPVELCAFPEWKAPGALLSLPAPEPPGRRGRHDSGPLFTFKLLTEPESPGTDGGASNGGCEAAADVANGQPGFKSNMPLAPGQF
Chain of UniProt Q5BJF2 (whole entry, looked up): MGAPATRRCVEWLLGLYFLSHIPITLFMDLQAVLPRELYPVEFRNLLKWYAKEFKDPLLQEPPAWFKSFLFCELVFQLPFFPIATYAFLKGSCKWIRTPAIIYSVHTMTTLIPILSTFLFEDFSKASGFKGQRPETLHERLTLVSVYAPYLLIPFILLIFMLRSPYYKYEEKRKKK

Sample 1
Target: DNA polymerase theta, ATPase domain (POLQ, Homo sapiens, UniProt O75417)
Chain of UniProt O75417 (whole entry, unmodified, looked up): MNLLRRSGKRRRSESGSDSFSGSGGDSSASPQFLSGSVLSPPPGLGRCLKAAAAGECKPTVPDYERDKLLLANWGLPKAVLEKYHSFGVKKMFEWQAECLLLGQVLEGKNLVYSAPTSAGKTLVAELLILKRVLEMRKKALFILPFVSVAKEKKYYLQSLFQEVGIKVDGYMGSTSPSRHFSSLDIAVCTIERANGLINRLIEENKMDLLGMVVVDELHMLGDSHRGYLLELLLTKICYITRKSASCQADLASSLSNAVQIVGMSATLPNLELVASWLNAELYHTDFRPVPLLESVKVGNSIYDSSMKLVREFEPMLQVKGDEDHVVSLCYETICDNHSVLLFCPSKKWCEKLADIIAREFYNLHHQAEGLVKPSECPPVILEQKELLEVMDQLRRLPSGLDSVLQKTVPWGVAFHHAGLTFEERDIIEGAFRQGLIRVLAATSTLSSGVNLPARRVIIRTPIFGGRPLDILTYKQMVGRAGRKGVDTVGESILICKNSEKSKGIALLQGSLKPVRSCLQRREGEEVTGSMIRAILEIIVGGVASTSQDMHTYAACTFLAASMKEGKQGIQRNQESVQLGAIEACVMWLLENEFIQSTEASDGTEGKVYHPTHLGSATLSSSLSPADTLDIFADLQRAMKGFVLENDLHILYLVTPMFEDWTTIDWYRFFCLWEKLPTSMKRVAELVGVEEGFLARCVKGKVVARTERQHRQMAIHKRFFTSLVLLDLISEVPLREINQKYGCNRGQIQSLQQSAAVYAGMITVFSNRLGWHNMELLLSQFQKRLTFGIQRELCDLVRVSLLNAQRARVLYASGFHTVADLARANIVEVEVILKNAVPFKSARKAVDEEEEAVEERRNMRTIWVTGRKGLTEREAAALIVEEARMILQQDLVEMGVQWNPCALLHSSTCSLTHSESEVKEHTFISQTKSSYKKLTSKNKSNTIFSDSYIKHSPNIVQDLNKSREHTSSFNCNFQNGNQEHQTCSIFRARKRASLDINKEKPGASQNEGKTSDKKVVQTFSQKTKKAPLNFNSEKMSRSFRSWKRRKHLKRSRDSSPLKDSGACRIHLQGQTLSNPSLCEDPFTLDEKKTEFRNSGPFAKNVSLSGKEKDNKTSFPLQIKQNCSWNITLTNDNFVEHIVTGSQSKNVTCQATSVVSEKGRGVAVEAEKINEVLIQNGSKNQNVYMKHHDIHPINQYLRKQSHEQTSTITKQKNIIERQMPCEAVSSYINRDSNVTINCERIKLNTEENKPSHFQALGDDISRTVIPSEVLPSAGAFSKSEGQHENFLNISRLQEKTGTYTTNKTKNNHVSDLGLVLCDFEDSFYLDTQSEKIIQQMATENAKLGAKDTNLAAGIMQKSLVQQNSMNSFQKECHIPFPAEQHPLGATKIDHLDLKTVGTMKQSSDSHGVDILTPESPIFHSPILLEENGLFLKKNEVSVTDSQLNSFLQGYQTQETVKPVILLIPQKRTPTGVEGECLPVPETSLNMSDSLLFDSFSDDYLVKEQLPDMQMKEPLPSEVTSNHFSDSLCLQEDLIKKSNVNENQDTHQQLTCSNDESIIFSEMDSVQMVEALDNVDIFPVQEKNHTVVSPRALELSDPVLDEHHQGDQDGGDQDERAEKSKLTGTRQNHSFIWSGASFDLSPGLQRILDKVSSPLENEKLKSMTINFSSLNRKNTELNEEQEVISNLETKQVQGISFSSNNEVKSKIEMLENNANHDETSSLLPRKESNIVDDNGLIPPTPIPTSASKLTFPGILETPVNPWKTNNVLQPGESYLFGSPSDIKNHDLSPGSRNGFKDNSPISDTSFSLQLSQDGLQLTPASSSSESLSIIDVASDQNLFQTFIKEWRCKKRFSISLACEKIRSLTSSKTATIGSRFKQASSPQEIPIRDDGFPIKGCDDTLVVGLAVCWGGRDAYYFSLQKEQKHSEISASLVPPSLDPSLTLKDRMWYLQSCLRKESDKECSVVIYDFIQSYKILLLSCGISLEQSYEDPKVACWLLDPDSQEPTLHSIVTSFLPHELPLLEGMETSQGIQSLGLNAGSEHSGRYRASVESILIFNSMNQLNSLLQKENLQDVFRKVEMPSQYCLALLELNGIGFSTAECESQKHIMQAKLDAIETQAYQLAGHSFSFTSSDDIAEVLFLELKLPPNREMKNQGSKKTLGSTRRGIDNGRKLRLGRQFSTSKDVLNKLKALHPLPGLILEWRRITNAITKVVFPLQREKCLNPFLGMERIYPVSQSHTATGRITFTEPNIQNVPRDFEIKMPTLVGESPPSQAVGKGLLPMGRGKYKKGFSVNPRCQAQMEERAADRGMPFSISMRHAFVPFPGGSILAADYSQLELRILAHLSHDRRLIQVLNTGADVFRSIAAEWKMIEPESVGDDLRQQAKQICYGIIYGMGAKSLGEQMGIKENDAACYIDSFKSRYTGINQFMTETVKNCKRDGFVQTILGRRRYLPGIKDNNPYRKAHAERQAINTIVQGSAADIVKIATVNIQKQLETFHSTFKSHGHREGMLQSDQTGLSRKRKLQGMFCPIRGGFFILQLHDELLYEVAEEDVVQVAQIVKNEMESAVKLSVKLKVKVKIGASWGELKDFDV
Effect on: enzyme activity
Action: inhibitor
Concentration: 77 µM
Baseline: untreated
With OC[C@H]1O[C@@H](OCCc2ccc(O)cc2)[C@H](O)[C@@H](O)[C@@H]1O the remaining activity was 101%.
CC(=O)Oc1cc(C(F)(F)F)ccc1C(=O)O has a remaining activity of 92.8% and 81.3%.
COc1ccc([C@@H]2CC(=O)c3c(O)cc(O[C@@H]4O[C@H](CO[C@@H]5O[C@@H](C)[C@H](O)[C@@H](O)[C@H]5O)[C@@H](O)[C@H](O)[C@H]4O)cc3O2)cc1OC gave a remaining activity of 98.2%.
With CC(=O)N1CCN(c2ccc(OC[C@@H]3CO[C@@](Cn4ccnc4)(c4ccc(Cl)cc4Cl)O3)cc2)CC1 the remaining activity was 152%.
COc1ccc(C(=O)c2ccccc2)c(O)c1 gave a remaining activity of 103%.
With Nc1nc2c(ncn2[C@@H]2O[C@H](CO)[C@@H](O)[C@H]2O)c(=O)[nH]1 the remaining activity was 94.4%.
The remaining activity of O=C(O)c1cc(-c2ccccc2)nc2ccccc12 is reported as 92.5%.
With COc1ccc2[nH]c([S+]([O-])Cc3ncc(C)c(OC)c3C)nc2c1 (stereo not drawn) the remaining activity was 107%.

Sample 2
Compound: O=C(c1ccc(F)cc1)N1CC(COc2ccc(Br)cc2)(C(=O)O)C1
Effect on: cell-free assay
Concentration: 10 µM
For Alpha-1B adrenergic receptor (ADRA1B, Homo sapiens, UniProt P35368): inhibition read -14.6%.
It gave -52.3% for inhibition (D(1A) dopamine receptor (DRD1, Homo sapiens, UniProt P21728)).
It gave -4.09% for inhibition (Alpha-1A adrenergic receptor (ADRA1A, Homo sapiens, UniProt P35348)).
For Alpha-2A adrenergic receptor (ADRA2A, Homo sapiens, UniProt P08913): inhibition read 14.2%.
For Muscarinic acetylcholine receptor M2 (CHRM2, Homo sapiens, UniProt P08172): inhibition read 26.7%.
The inhibition was -26.2% (Histamine H4 receptor (HRH4, Homo sapiens, UniProt Q9H3N8)).
It gave -6.66% for inhibition (Beta-1 adrenergic receptor (ADRB1, Homo sapiens, UniProt P08588)).
Histamine H2 receptor (HRH2, Homo sapiens, UniProt P25021) — inhibition: 15.7%.
For Alpha-2B adrenergic receptor (ADRA2B, Homo sapiens, UniProt P18089): inhibition read 12.1%.
Muscarinic acetylcholine receptor M5 (CHRM5, Homo sapiens, UniProt P08912) — inhibition: -0.33%.
The inhibition was -12.2% (Sigma intracellular receptor 2 (TMEM97, Homo sapiens, UniProt Q5BJF2)).

Sample 3
Target: Serine/threonine-protein kinase NLK (NLK, Homo sapiens, UniProt Q9UBE8)
Chain of UniProt Q9UBE8 (whole entry, looked up): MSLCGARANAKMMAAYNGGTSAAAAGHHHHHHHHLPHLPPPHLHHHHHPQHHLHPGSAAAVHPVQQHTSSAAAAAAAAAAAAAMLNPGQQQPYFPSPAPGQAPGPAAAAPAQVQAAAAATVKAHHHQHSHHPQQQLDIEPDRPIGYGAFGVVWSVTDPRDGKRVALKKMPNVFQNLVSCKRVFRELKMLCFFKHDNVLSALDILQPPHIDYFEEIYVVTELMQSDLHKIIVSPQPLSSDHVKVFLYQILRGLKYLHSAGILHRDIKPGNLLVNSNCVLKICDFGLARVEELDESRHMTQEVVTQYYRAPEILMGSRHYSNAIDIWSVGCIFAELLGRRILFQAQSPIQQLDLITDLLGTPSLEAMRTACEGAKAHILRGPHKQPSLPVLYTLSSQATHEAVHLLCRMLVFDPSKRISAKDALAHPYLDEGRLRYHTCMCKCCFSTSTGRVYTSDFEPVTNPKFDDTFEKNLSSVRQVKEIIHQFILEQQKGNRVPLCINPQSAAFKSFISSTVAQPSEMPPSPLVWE
Effect on: enzyme activity
Action: inhibitor
Concentration: 0.5 µM
Baseline: control
Cc1ccc(NC(=O)c2ccc(CN3CCN(C)CC3)cc2)cc1Nc1nc(-c2cccnc2)cs1 has a remaining activity of 106%.
For O=C(CCCc1ccc(-c2ccccc2F)cc1)Nc1ccc(O)cc1, the remaining activity was 101%.
Cc1cccc(-c2[nH]c(C(C)(C)C)nc2-c2ccc3c(c2)OCO3)n1 gave a remaining activity of 87.9%.
For Oc1ccc(-c2nc(-c3ccncc3)c(-c3ccc(F)cc3)[nH]2)cc1, the remaining activity was 46.1%.
With COc1cc2ncnc(Nc3ccc(Oc4ccccc4)cc3)c2cc1OC the remaining activity was 100%.
For Cc1ccc(Nc2nccc(N(C)c3ccc4c(C)n(C)nc4c3)n2)cc1S(N)(=O)=O, the remaining activity was 69%.
The remaining activity of Nc1ncnc2n[nH]c(Nc3ccc(F)cc3)c12 is reported as 95.4%.
The remaining activity of COc1ccc(OC)c2c(=S)c3ccccc3[nH]c12 is reported as 98.8%.
For Cn1sc(=O)n(Cc2ccccc2)c1=O, the remaining activity was 105%.
The remaining activity of N#CC(C#N)=C(N)/C(C#N)=C/c1ccc(O)cc1 is reported as 96.7%.
The remaining activity of O=C(Nc1cccc(Nc2cc(Nc3cccc(C(F)(F)F)c3)ncn2)c1)C1CC1 is reported as 95.9%.
The remaining activity of O=S(=O)(c1cccc2cnccc12)N1CCCNCC1 is reported as 97.3%.
For NCCNc1ncc(C(N)=O)c(Nc2cccc(C(F)(F)F)c2)n1, the remaining activity was 91.9%.
CCOC(=O)c1c(C)[nH]c(/C=C2\C(=O)Nc3ccccc32)c1C has a remaining activity of 94.8%.
Cn1c2ccccc2c2c3c(c4c5ccccc5n(CCC#N)c4c21)CNC3=O has a remaining activity of 57.3%.
The remaining activity of Nc1[nH]nc2nc3ccccc3nc12 is reported as 95.2%.

Other studies, line by line
For CN(C(=O)c1ccn2ncc(-c3ccc(C(N)=O)cc3)c2c1)c1ccc(C#N)cn1, the oocyst shedding was 3.95 log oocysts/g faeces and 3.84 log oocysts/g faeces and 4.3 log oocysts/g faeces (Cryptosporidium parvum; faecal qPCR; IFN-γ knockout mouse; oral, 10 mg/kg; baseline: vehicle).

Excerpt of the above (sample 2):
For Muscarinic acetylcholine receptor M2 (CHRM2, Homo sapiens, UniProt P08172): inhibition read 26.7%.
The inhibition was -26.2% (Histamine H4 receptor (HRH4, Homo sapiens, UniProt Q9H3N8)).
It gave -6.66% for inhibition (Beta-1 adrenergic receptor (ADRB1, Homo sapiens, UniProt P08588)).
Histamine H2 receptor (HRH2, Homo sapiens, UniProt P25021) — inhibition: 15.7%.
For Alpha-2B adrenergic receptor (ADRA2B, Homo sapiens, UniProt P18089): inhibition read 12.1%.
